{"data": "Experimental data collected from several papers", "note": "Several values in a cell are separate wells, animals, samples, runs or records. Numbers after ± are the reported error."}
{"Compound": "CCN(CC)CC(=O)Nc1cccc(-n2cc(-c3ccc4ccc(-c5cn(-c6cccc(NC(=O)CN(CC)CC)c6)nn5)cc4c3)nn2)c1", "target or system": "RCC4", "assay": "PCR angiogenesis array, measured: CDH5", "conditions": "5 x IC50, 2 h, normoxia", "how to read": "reference: untreated", "quantity": "fold regulation", "value": -1.11}
{"Compound": "O=C1CC[C@H](N2Cc3cc(-c4ccn5ncc(Cl)c5n4)ccc3C2=O)C(=O)N1", "target or system": "MOLM-13", "assay": "protein level, TMT proteomics, measured: AAK1", "conditions": "1 µM, 6 h", "how to read": "reference: DMSO", "quantity": "log2 fold change", "value": -0.000139}
{"Compound": "CCN(C(=O)c1cc(F)ccc1Oc1nncnc1N1CCC2(C1)CN([C@H](CCCN(C)CCOC)C(C)C)C2)C(C)C", "target or system": "ASPC1", "assay": "cell growth or viability", "conditions": "72 h", "quantity": "GI50", "value": "> 10000 nM"}
{"Compound": "CCc1c(-c2ccc3[nH]ncc3c2)cnc(N)c1-c1ccc(O)cc1", "target or system": "CHP-212", "assay": "cell growth or viability, SRB", "conditions": "0.7812 µM", "quantity": "viability", "value": "104%"}
{"Compound": "CC(C)(C)c1cc(-c2ccc3cc4ccccc4nc3n2)nc(-c2ccc3cc4ccccc4nc3n2)c1.[Cl-].[Cl-].[Ru+2].c1ccc2cc3nc4c5cccnc5c5ncccc5c4nc3cc2c1", "target or system": "A-375", "assay": "cytotoxicity, resazurin", "conditions": "dark", "quantity": "EC50", "value": "50000 nM"}
{"Compound": "CN(C)Cc1nc(Nc2ccc(-c3cnc4cc(F)ccn34)c3c2C(=O)NC3)ccc1C1CCOC1 (centres unmarked)", "target or system": "mouse BMDC", "assay": "flow cytometry", "conditions": "10 µM", "quantity": "CD80-positive cells", "value": "68%"}
{"Compound": "O=C(CC(=O)Nc1ccc2c(/C=C/c3ccccn3)n[nH]c2c1)Nc1ccc(Cl)c(C(F)(F)F)c1", "target or system": "Ba/F3 TEL-VEGFR1", "assay": "cell growth, CCK-8", "quantity": "GI50", "value": "500 nM"}
{"Compound": "COc1ccc2c(c1)OC1=C(C(=O)CCC1)C2c1c[nH]c2ccccc12 (centres unmarked)", "target or system": "3T3-L1 during adipogenesis", "assay": "Oil Red O", "conditions": "IC20", "how to read": "reference: untreated", "quantity": "lipid content reduction", "value": "~80%"}
{"Compound": "Cc1cc(C)nc(SCC(=O)Nc2ncc(Cc3cccc(OCc4cn(-c5ccc(Cl)cc5)nn4)c3)s2)n1", "target or system": "PC-3M-luc", "assay": "cell viability, MTS", "conditions": "10 µM", "quantity": "inhibition", "value": "29.2 ± 3.4%"}
{"Compound": "CN(C)c1ccc(-n2cc(COC(=O)[C@]3(C)C=C(C(=O)OC(C)(C)C)C(=O)CC3)nn2)cc1", "target or system": "AP-1 reporter HEK293", "assay": "AP-1 reporter gene, luciferase reporter", "conditions": "10 µM, 6 h, together with: PMA 6 ng/mL", "how to read": "higher = more transcription", "quantity": "luminescence", "value": "1070 a.u."}
{"Compound": "O=C(N/N=C/c1ccc(C[n+]2ccccc2)cc1)c1cc(C(=O)N/N=C/c2ccc(C[n+]3ccccc3)cc2)ncn1", "target or system": "hp2 hairpin duplex DNA", "assay": "FRET melting", "conditions": "1 µM", "quantity": "ΔTm", "value": "0.2 ± 0.2 °C"}
{"Compound": "CN1CCCNC(=O)c2cccc(c2)C(=O)NCCCN(C)CCCNc2cccc3c2C(=O)c2cccc(c2C3=O)NCCC1", "target or system": "SAS", "assay": "RNA-Seq, measured: XRN1 mRNA", "conditions": "1 µM, 6 h", "how to read": "reference: untreated cells", "quantity": "log2 fold change", "value": -0.896}
{"Compound": "Oc1ccnc(-c2cc(O)ccn2)c1.[Cl-].[Cl-].[Ru+2].c1ccc(-c2ccnc3c2ccc2c(-c4ccccc4)ccnc23)cc1.c1ccc(-c2ccnc3c2ccc2c(-c4ccccc4)ccnc23)cc1", "target or system": "MCF-10A", "assay": "cell viability", "how to read": "reference: dark EC50 over light EC50", "quantity": "phototoxicity index", "value": 480}
{"Compound": "Cn1ncc2cc(-c3cncc(Cl)c3N3CCC4(CCNC4=O)CC3)ccc21", "target or system": "LS174T", "assay": "gene expression, microarray, measured: NOD2 mRNA", "conditions": "concentration not given, 4 h", "how to read": "reference: untreated cells", "quantity": "log2 fold change", "value": 1.05}
{"Compound": "COC(=O)c1cc(NC2=NC(=O)C(=Cc3ccc(C)cc3)S2)ccc1OC(C)=O", "target or system": "MCF7", "assay": "GC-MS, measured: Cholesterol", "conditions": "1 µM", "how to read": "reference: DMSO", "quantity": "metabolite level", "value": "0.56 fold change"}
{"Compound": "CC(C)(C)c1cc(-c2ccc3cccnc3n2)nc(-c2ccc3cccnc3n2)c1.[Cl-].[Cl-].[Ru+2].c1ccc2cc3nc4c5cccnc5c5ncccc5c4nc3cc2c1", "target or system": "A-375", "conditions": "visible light 100 J/cm2", "how to read": "reference: dark EC50 over light EC50", "quantity": "phototherapeutic index", "value": 7}
{"Compound": "O=C(N1CCCC1)n1cc(-c2ccc(-c3ccccc3)cc2)nn1", "target or system": "mouse T cells", "assay": "N-terminal labelling proteomics, measured: Fbxo7 N-terminal peptide", "conditions": "0.001 µM, 6 h", "how to read": "reference: DMSO", "quantity": "SILAC ratio per peptide", "value": "1.23 and 0.88 and 0.85"}
{"Compound": "Cc1ccncc1.[Cl-].[Cl-].[Ru+2].c1cc(-c2ccc3cccnc3n2)nc(-c2ccc3cccnc3n2)c1.c1ccc2cc3nc4c5cccnc5c5ncccc5c4nc3cc2c1", "target or system": "A-375", "assay": "resazurin", "conditions": "together with: light 523 nm, 100 J/cm2", "how to read": "reference: dark EC50 over light EC50", "quantity": "phototoxicity index", "value": 42}
{"Compound": "CC[n+]1cccc2cc(/C=N/NC(=O)C(=O)N/N=C/c3ccc4c(ccc[n+]4CC)c3)ccc21", "target or system": "MYC parallel G4 DNA", "assay": "FRET melting", "conditions": "1 µM, DNA 0.2 µM, together with: duplex DNA competitor 10 µM", "quantity": "ΔTm", "value": "3.6 ± 0.2 °C"}
{"Compound": "CC(C)C[C@@H]1NC(=O)[C@H](CC(C)C)NC(=O)[C@H](Cc2c[nH]c3ccccc23)NC(=O)[C@H](CO)NC(=O)[C@H](Cc2c[nH]c3ccccc23)NC(=O)[C@@H]2CCCN2C(=O)[C@H](CC(C)C)NC(=O)[C@H](Cc2c[nH]cn2)NC(=O)[C@@H]2CCCN2C(=O)[C@H](CC(N)=O)NC(=O)[C@H](C)NC(=O)[C@H](Cc2ccc(O)cc2)NC(=O)[C@H](CS)NC(=O)[C@H](CCCCNC(=O)CN2CCN(CC(=O)O)CCN(CC(=O)O)CCN(CC(=O)O)CC2)NC1=O [lutetium-177 labelled]", "target or system": "4T1", "assay": "flow cytometry", "conditions": "0.4 Bq/cell, 24 h", "quantity": "live cells", "value": "75.8%"}
{"Compound": "COc1cc(N2CCN(C(=O)CCOCCNC(=O)[C@@H]3CCCN3)CC2)ccc1Nc1ncc(Cl)c(Nc2ccccc2P(C)(C)=O)n1", "target or system": "NCI-H3122", "assay": "annexin V/PI flow cytometry", "conditions": "500 nM, 24 h", "quantity": "late apoptotic cells", "value": "2.4%"}
{"Compound": "Cc1ncsc1-c1ccc(C(C)NC(=O)C2CC(O)CN2C(=O)C(NC(=O)CCCCCCCCCCN2CCCC(Nc3ncc(Cl)c(Nc4ccccc4S(=O)(=O)C(C)C)n3)C2)C(C)(C)C)cc1 (centres unmarked)", "target or system": "22Rv1", "assay": "RNA-seq, measured: ORAI3 mRNA", "conditions": "concentration not given", "how to read": "reference: DMSO", "quantity": "log2 fold change", "value": -1.26}
{"Compound": "COc1cc(/C=C/C(=O)CC(C)=O)ccc1O", "target or system": "A549", "assay": "PI staining flow cytometry", "conditions": "50 µM, 48 h", "quantity": "cells in S phase", "value": "2.46%"}
{"Compound": "CO[C@@H]1[C@@H](OC(N)=O)[C@@H](O)[C@H](Oc2ccc3c(O)c(NC(=O)c4ccc(O)c(CC=C(C)C)c4)c(=O)oc3c2C)OC1(C)C", "target or system": "DLD-1 BRCA2-/-", "conditions": "50 µM, mean of replicates A, B", "how to read": "reference: untreated", "quantity": "colony survival", "value": "34.7%"}
{"Compound": "COc1ccc(NC(=O)c2ccc3[nH]c(-c4ccc(N(C)C)cc4)nc3c2)cn1", "target or system": "HCEC-hTERT", "assay": "IncuCyte", "conditions": "concentration not given, 6 h", "quantity": "dead cell to confluence ratio", "value": "2.39 and 4.02 and 14.2"}
{"Compound": "CC(=O)OC[C@H]1O[C@@H](n2cc(CSc3nc4ccccc4n3Cc3cn([C@@H]4O[C@H](COC(C)=O)[C@@H](OC(C)=O)C(OC(C)=O)[C@H]4OC(C)=O)nn3)nn2)[C@H](OC(C)=O)C(OC(C)=O)[C@@H]1OC(C)=O (stereo in doubt)", "target or system": "Caco-2", "assay": "MTT", "conditions": "15.6 ppm", "quantity": "cytotoxicity", "value": "75.6%"}
{"Compound": "CN1CC[C@@H](COc2cnc(C#N)cc2-c2ccn3nc(NC(=O)C4CC4)cc3c2)C1", "target or system": "C57BL/6 mouse BMDC", "assay": "IL-10 release, inducer", "conditions": "3 h, together with: LPS", "quantity": "EC50", "value": "630 nM"}
{"Compound": "CNS(=O)(=O)Nc1nccc(Cc2c(C)c3ccc(Oc4ncccc4F)cc3oc2=O)c1F", "target or system": "P31-FUJ", "assay": "cell viability, CellTiter-Glo", "conditions": "7 days", "quantity": "IC50", "value": "17.4 nM"}
{"Compound": "CC(C)c1ccc(N(C)c2ccc3c(c2)OCC[C@H]3CNc2cnccc2C(=O)O)cc1", "target or system": "SK-MES-1", "assay": "cell growth or viability, ATP luminescence", "conditions": "7 days", "quantity": "IC50", "value": "47.5 nM"}
